{"data": "Published values pooled from the literature", "note": "Each numbered part is a random draw from the data of one study; scales do not carry over between parts. Substitutions count along the parent as printed."}
{"data": "Study 1", "target": "CCND3, cyclin fold, Cln2 fusion (human)", "method": "yeast growth competition, sequencing", "medium": "yeast", "notes": "weak parent motif", "reference": "not given", "reading": "higher = stronger binding", "starting sequence": "E2F1 docking peptide (human); PPVKRRLDLETDH; partner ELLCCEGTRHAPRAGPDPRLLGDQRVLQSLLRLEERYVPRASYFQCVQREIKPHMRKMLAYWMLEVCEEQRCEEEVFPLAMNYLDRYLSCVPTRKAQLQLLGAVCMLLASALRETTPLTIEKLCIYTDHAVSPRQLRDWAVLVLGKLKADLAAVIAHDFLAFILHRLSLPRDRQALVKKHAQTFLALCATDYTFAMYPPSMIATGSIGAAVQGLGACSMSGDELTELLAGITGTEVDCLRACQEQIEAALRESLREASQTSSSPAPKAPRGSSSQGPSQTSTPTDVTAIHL"}
{"Substitution": "V3T", "normalised enrichment score": 0.0837}
{"Substitution": "D8E", "normalised enrichment score": 0.0299}
{"Substitution": "L9F", "normalised enrichment score": 0.413}
{"Substitution": "P1T", "normalised enrichment score": 0.0956}
{"Substitution": "K4W", "normalised enrichment score": 0.135}
{"Substitution": "D12I", "normalised enrichment score": 0.0955}
{"Substitution": "L7R", "normalised enrichment score": 0.0768}
{"Substitution": "D12V", "normalised enrichment score": 0.0981}
{"Substitution": "V3C", "normalised enrichment score": 0.145}
{"Substitution": "R5V", "normalised enrichment score": -0.0176}
{"Substitution": "H13A", "normalised enrichment score": 0.0423}
{"Substitution": "L7D", "normalised enrichment score": 0.144}
{"Substitution": "T11Y", "normalised enrichment score": 0.219}
{"Substitution": "D12N", "normalised enrichment score": 0.0573}
{"Substitution": "H13G", "normalised enrichment score": 0.202}
{"Substitution": "V3Q", "normalised enrichment score": 0.143}
{"Substitution": "K4S", "normalised enrichment score": 0.105}
{"Substitution": "R6E", "normalised enrichment score": 0.17}
{"Substitution": "P2F", "normalised enrichment score": 0.197}
{"Substitution": "P2H", "normalised enrichment score": 0.147}
{"Substitution": "R5A", "normalised enrichment score": 0.096}
{"Substitution": "D8R", "normalised enrichment score": 0.126}
{"Substitution": "D8I", "normalised enrichment score": 0.144}
{"Substitution": "R6T", "normalised enrichment score": 0.209}
{"Substitution": "D12G", "normalised enrichment score": 0.114}
{"data": "Study 2", "Substance": "PhoQ, residues 284 288 289 292 302 303 NLALSC", "method": "Sort-seq", "refers to": "YFP reporter", "medium": "E. coli", "notes": "PhoQ-PhoP variant library", "added": "10 µM Mg2+", "reference": "high Mg2+ state", "reading": "higher = stronger signaling"}
{"target": "PhoP, residues 12 14 15 18 19 VGHWL (Escherichia coli, UniProt P23836)", "fold induction": 1.69}
{"target": "PhoP, residues 12 14 15 18 19 LHHYF (Escherichia coli, UniProt P23836)", "fold induction": 1.01}
{"target": "PhoP, residues 12 14 15 18 19 TPWTL (Escherichia coli, UniProt P23836)", "fold induction": 1.72}
{"data": "Study 3", "target": "ABI1, truncated, D143A, DHFR fusion (Arabidopsis thaliana)", "method": "DHFR PCA, deep sequencing", "medium": "yeast", "notes": "methotrexate growth selection, single substitutions", "added": "(+)-ABA 200 µM", "reference": "wild-type fitted maximum", "reading": "higher = stronger binding", "starting sequence": "PYL1, truncated, DHFR fusion (Arabidopsis thaliana); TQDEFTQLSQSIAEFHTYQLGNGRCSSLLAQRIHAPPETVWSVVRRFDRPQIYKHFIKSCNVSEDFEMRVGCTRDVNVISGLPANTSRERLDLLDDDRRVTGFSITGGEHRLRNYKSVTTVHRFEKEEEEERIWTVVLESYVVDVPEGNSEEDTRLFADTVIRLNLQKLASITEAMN; partner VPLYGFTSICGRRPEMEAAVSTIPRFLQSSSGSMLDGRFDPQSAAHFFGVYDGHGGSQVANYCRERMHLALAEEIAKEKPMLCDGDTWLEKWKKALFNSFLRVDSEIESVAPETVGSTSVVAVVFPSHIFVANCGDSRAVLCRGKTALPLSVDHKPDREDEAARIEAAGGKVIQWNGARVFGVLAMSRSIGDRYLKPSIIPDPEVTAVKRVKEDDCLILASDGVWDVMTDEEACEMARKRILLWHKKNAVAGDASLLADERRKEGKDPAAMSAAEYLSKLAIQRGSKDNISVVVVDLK"}
{"Substitution": "N61C", "relative binding score": "99.6%"}
{"Substitution": "I105G", "relative binding score": "4.75%"}
{"Substitution": "G107L", "relative binding score": "30.9%"}
{"Substitution": "D75A", "relative binding score": "100%"}
{"Substitution": "R49P", "relative binding score": "-9.01%"}
{"Substitution": "H122N", "relative binding score": "68.4%"}
{"Substitution": "L28P", "relative binding score": "-31.3%"}
{"Substitution": "W41D", "relative binding score": "-1.83%"}
{"Substitution": "S140C", "relative binding score": "-0.719%"}
{"Substitution": "G102M", "relative binding score": "74.7%"}
{"Substitution": "T101N", "relative binding score": "39.4%"}
{"Substitution": "Q31L", "relative binding score": "49.4%"}
{"Substitution": "L29R", "relative binding score": "78.4%"}
{"Substitution": "T6R", "relative binding score": "104%"}
{"Substitution": "K116A", "relative binding score": "100%"}
{"Substitution": "I105L", "relative binding score": "34.6%"}
{"Substitution": "S59P", "relative binding score": "1.29%"}
{"Substitution": "F15Y", "relative binding score": "100%"}
{"Substitution": "V161N", "relative binding score": "4.52%"}
{"Substitution": "R46Q", "relative binding score": "97.9%"}
{"Substitution": "T1F", "relative binding score": "99.8%"}
{"Substitution": "V40L", "relative binding score": "2.76%"}
{"data": "Study 4", "target": "RNA binding protein fox-1 homolog 2, RRM domain, GST-SBP tag (RBFOX2, Homo sapiens, UniProt O43251-10, residues 100-194)", "method": "RNA Bind-n-Seq", "form": "RNA", "medium": "in vitro", "concentration": "365 nM", "notes": "natural RNA segment, single round, ends assumed", "reference": "no-protein control", "reading": "higher = stronger binding", "shared flanks, not repeated": "GGGAGUUCUACAGUCCGACGAUC … UGGAAUUCUCGGGUGCCAA", "Residues (chain)": "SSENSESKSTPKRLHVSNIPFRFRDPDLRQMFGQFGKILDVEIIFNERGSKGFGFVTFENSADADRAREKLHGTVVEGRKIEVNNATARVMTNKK"}
{"Oligonucleotide": "UCAUGUGUUGUGAGUCAGAUCACACAGUCGAUAGGAUCAGUAUUUCAAUUCCAGAGCCCCUCCACUCUAACGCUAUGCUUUGCUUAUUAUUGCUACAGAGAUAACUGCCC", "RBNS enrichment (R)": 0.532}
{"Oligonucleotide": "AUAAAAUUGCCAUCAUUCUAUUUUUAUCCAAAAGUAUAAAUUUUGCUUUGGCAUGAAAAGUGGUCCUCUUGACUGCAUUAUGCAUGCGAGGAUGAAAUAAACCUAGAAGU", "RBNS enrichment (R)": 7.54}
{"Oligonucleotide": "CAUAUCAAAGUAUAAUUGAUGGGGGCCUUGUUUUGUUUUGUUUUGGUUUUUGGAGACAGGGUCUCACUGUGUAGUCCUAGCUGGCCUGGAACUCACUAUGUAGAUCAGGC", "RBNS enrichment (R)": 1.91}
{"Oligonucleotide": "CUCCUUCCCUCAAGUCUUAGUUGGUUUGAGAGCCAGGGAUAUGGAUCCAGGGUGCUGUUGCAGGGUCACCUGCCUGUUACCACACCCCCAUCCAGCUGGGUGGUGGGUGA", "RBNS enrichment (R)": 0.191}
{"Oligonucleotide": "AGUGGCUUUUUGGCUCAGCAUCCAGAAACACCAAACCAGGCUGGCUAAACAAGUGGCCGCGUGUAAAAACAGACAGCUCUGAGUCAAAUCUGGGCCCUUCCACAAGGGUC", "RBNS enrichment (R)": 0.334}
{"Oligonucleotide": "UUGCCCUCCUCCUUCAGCCUGCCCCUGCCUUGGGCUGCCCUUCCCCUGGUGUACUCCUGAGGUGUCUGCCCCAGCUGGCUGCCCUGGGAGAGUGGCUGGAUGGCUUUGGC", "RBNS enrichment (R)": 0.239}
{"Oligonucleotide": "UGUUAGAAACAAGGCUACAGUUUUAAAAUGGCUUGGUUCUGUCCUUGCAAUUGCUUUGUCGUGGCAAGUGUGUUGUUCUACUCUCUCUUGUUUGAAACAAUGCUUGACAA", "RBNS enrichment (R)": 1.46}
{"Oligonucleotide": "GCCCUGGGCCUGGCGGCACAGCAGCACUUGCGUUCUCGGGGCUGUCGAUUUCCUGCCACCUGGGCAGAUAACCUGGAGAUUUUCACCUUUUCUUUUCAGCUUGAUUGCAU", "RBNS enrichment (R)": 3.11}
{"data": "Study 5", "target": "Histone acetyltransferase KAT6A, winged helix 1, GST fusion (KAT6A, Homo sapiens, UniProt Q92794, residues 1-85)", "method": "protein binding microarray", "form": "double-stranded DNA, one strand shown", "medium": "in vitro", "concentration": "not given", "notes": "8-mer, flanks averaged, mean of 2 arrays, mostly near background", "reference": "not given", "reading": "higher = stronger binding", "Construct (chain)": "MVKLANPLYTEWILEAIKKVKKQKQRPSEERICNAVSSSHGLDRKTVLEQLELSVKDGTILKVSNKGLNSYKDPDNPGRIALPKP"}
{"Oligonucleotide": "ACGCTTGC", "E-score": 0.154}
{"Oligonucleotide": "AATTCATA", "E-score": 0.0316}
{"Oligonucleotide": "AAAGCCTA", "E-score": -0.119}
{"Oligonucleotide": "ATATACAT", "E-score": -0.145}
{"Oligonucleotide": "AGAGGATC", "E-score": -0.23}
{"Oligonucleotide": "CCGTGCTC", "E-score": 0.105}
{"Oligonucleotide": "CCGGTAAA", "E-score": 0.33}
{"Oligonucleotide": "AACAACAG", "E-score": -0.0579}
{"Oligonucleotide": "CAGTCCTA", "E-score": -0.147}
{"Oligonucleotide": "GCACAGTA", "E-score": -0.0112}
{"Oligonucleotide": "CATACAGC", "E-score": 0.114}
{"Oligonucleotide": "AAATTCTC", "E-score": -0.158}
{"Oligonucleotide": "AAGCTGAA", "E-score": -0.111}
{"Oligonucleotide": "CGCCCAGC", "E-score": 0.148}
{"Oligonucleotide": "CTCCCGAG", "E-score": -0.0347}
{"Oligonucleotide": "ACGAATAA", "E-score": -0.204}
{"note": "Repeated from above (study 1):"}
{"Substitution": "V3C", "normalised enrichment score": 0.145}
{"Substitution": "R5V", "normalised enrichment score": -0.0176}
{"Substitution": "H13A", "normalised enrichment score": 0.0423}
{"Substitution": "L7D", "normalised enrichment score": 0.144}
{"Substitution": "T11Y", "normalised enrichment score": 0.219}
{"Substitution": "D12N", "normalised enrichment score": 0.0573}
{"Substitution": "H13G", "normalised enrichment score": 0.202}
{"Substitution": "V3Q", "normalised enrichment score": 0.143}
{"Substitution": "K4S", "normalised enrichment score": 0.105}
{"Substitution": "R6E", "normalised enrichment score": 0.17}
